Experimental data gathered from unrelated publications.
Compare with care: the assays were run in different laboratories. ± marks the error that the study gave.

Cc1ccc(S(=O)(=O)N2C(=O)CSC2c2ccccc2)cc1 (centres unmarked)  EC50 (herpes simplex virus 1; viral cytopathicity; HEL, KOS): > 100000 nM
O=C(NCc1ccc(F)c(Cl)c1)c1cn(Cc2ccc(F)cc2)cc(O)c1=O  EC50 (Human betaherpesvirus 5; viral replication, inhibitor; 7 days): 620 nM
equisetin  EC50 (Trichomonas vaginalis; viability; 17 h): 3000 nM
O=C(C=Cc1ccc2ccccc2n1)c1cc(Cl)ccc1O  EC50 (Alphacoronavirus 1; viral replication, inhibitor; CRFK): 4030 nM
COC(=O)N[C@H](C(=O)N1CCC[C@H]1c1ncc(-c2ccc(-c3ccc(-c4cnc([C@@H]5CCCN5C(=O)[C@@H](NC(=O)OC)C(C)C)[nH]4)cc3)cc2)[nH]1)C(C)C  EC50 (hepatitis C virus; viral replication, transient replicon; genotype 1a NS5A Y93C): 11 ± 4 nM
COc1ccc2c3c([nH]c2c1)[C@H](CO)N(Cc1ccccc1)CC31CCN(C(=O)Cc2ccccc2)CC1  EC50 (respiratory syncytial virus; cytopathic effect; HEp-2, A2; 5 days, original sample): 13700 nM
Cc1ccc(S(=O)(=O)N2C(=O)CSC2c2ccc(C(C)C)cc2)cc1 (centres unmarked)  EC50 (herpes simplex virus 1; viral cytopathicity; HEL, KOS TK-deficient acyclovir-resistant): > 100000 nM
Nc1ccn(C[C@@H](CO)OCP(=O)(O)O)c(=O)n1  EC50 (human cytomegalovirus; cytopathic effect; HEL fibroblasts, Davis): 120 ± 30 nM
NC(=O)c1ncn([C@@H]2O[C@H](CO)[C@@H](O)[C@H]2O)n1  EC50 (respiratory syncytial virus; viral replication; HeLa): 4000 nM
CN1c2ccc(-c3ccc(C#N)cc3)cc2[C@H]2[C@H](CCN2C(=O)c2cccc(F)c2)[C@@H]1CO  EC50 (respiratory syncytial virus; cytopathic effect; HEp-2, A2; 5 days, original sample): 1300 nM
CC(C)(C)NC(=O)N(CCCCCCN1C[C@H](O)[C@@H](O)[C@H](O)[C@H]1CO)C1CCCCC1  EC50 (bovine viral diarrhea virus; MDBK; 22 h): 250 ± 50 nM
NC(=O)NO  EC50 (human cytomegalovirus; viral spread, GFP reporter; MRC-5, BADrUL131-Y4 (AD169, GFP); 14 d): 171000 ± 46000 nM
NC(=O)c1ncn([C@@H]2O[C@H](CO)[C@@H](O)[C@H]2O)n1  EC50 (respiratory syncytial virus; viral cytopathic effect; HeLa): 2900 ± 1300 nM
NC1=NC(=O)N(CC(O)C(F)(F)F)CN1 (centres unmarked)  EC50 (herpes simplex virus 1; cytopathic effect; HEL, KOS, TK-deficient, acyclovir-resistant): > 100000 nM
O=C(N/N=C1\C(=O)Nc2ccccc21)N/N=C1\C(=O)Nc2ccccc21  EC50 (respiratory syncytial virus; viral replication; HeLa): > 100000 nM
O=C(Nc1ccc(F)cc1)c1cn(Cc2ccc(F)cc2)cc(O)c1=O  EC50 (Human betaherpesvirus 5; viral replication, inhibitor; 7 days): 870 nM
NC(=O)c1ncn([C@@H]2O[C@H](CO)[C@@H](O)[C@H]2O)n1  EC50 (Alphacoronavirus 1; viral replication, inhibitor; CRFK): 51500 nM
O=C(CN1c2c(n[nH]c2-c2cccc(Cl)c2)-c2ccccc2S1(=O)=O)NN=Cc1cccc(Br)c1  EC50 (HIV-1; viral replication; PBMC): > 10000 nM
O=C(Cc1csc2nc(-c3ccc(Br)cc3)cn12)NN=C1CCCCC1  EC50 (feline herpesvirus; viral cytopathic effect; CRFK): > 100 µg/mL
O=C(NCc1ccc(Cl)cc1F)c1cn(Cc2ccc(F)cc2)cc(O)c1=O  EC50 (Human betaherpesvirus 5; viral replication, inhibitor; 7 days): 550 nM

Some of these lines once more:
Cc1ccc(S(=O)(=O)N2C(=O)CSC2c2ccc(C(C)C)cc2)cc1 (centres unmarked)  EC50 (herpes simplex virus 1; viral cytopathicity; HEL, KOS TK-deficient acyclovir-resistant): > 100000 nM
